Measurements gathered from unrelated publications.
Protocols differ between the studies behind these lines.
T1: PSMG3/PSMG4 heterodimer (Homo sapiens); chain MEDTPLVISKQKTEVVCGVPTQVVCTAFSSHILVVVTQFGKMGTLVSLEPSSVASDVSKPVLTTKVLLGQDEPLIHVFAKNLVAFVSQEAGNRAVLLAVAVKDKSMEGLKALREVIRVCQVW; chain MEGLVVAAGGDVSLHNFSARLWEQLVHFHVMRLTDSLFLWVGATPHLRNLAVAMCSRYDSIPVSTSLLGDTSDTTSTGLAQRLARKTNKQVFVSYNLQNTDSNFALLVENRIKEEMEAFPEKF
B1: fesII 1-122 (Azotobacter vinelandii, UniProt Q44501); chain MATIYFSSPLMPHNKKVQAVAGKRSTLLGVAQENGVKIPFECQDGNCGSCLVKITHLDGERIKGMLLTDKERNVLKSVGKLPKSEEERAAVRDLPPTYRLACQTIVTDEDLLVEFTGEPGGA
B2: PAF1 (Arabidopsis thaliana, UniProt F4HQA1); sequence looked up; chain MASYRPPYPPLPQPPSQNSLAPPPPPPSLPPPVPPPPPSHQPYSYPPPPPPPPHAYYQQGPHYPQFNQLQAPPPPPPPSAPPPLVPDPPRHQGPNDHEKGASKQVGRRERAKPDPSKHHHRSHLPHSKKIETEEERRLRKKRELEKQRQDEKHRQQMKNSHKSQMPKGHTEEKKPTPLLTTDRVENRLKKPTTFICKLKFRNELPDPSAQLKLMTIKRDKDQFTKYTITSLEKLWKPKIFVEPDLGIPLDLLDLSVYNPPKVKAPLAPEDEELLRDDDAVTPIKKDGIRRKERPTDKGMSWLVKTQYISSINNESARQSLTEKQAKELREMKGGINILHNLNNRERQIKDIEASFEACKSRPVHATNKNLQPVEVLPLLPYFDRYDEQFVVANFDGAPIADSEFFGKLDPSIRDAHESRAILKSYVVAGSDTANPEKFLAYMVPSLDELSKDIHDENEEISYTWVREYLWDVQPNANDPGTYLVSFDNGTASYLPLPMRLNLRKKRAREGRSSDEIEHFPVPSRVTVRRRSTVSVIEHKDSGVYSSRVGASSSKMRRLEDEGGLGRSWKHEPEQDANQYSDGNEDDYSE
B3: Rai14 1-400 (Mus musculus, UniProt Q9EP71); sequence looked up; chain MKSLKAKFRKSDTNEWNKNDDRLLQAVENGDAEKVASLLGKKGASATKHDSEGKTAFHLAAAKGHVECLKVMVTHGVDVTAQDSSGHSALHVAAKNGHPECIRKLLQYKSPAENIDNSGKTALHYAAAQGCLQAVQLLCEHKSPINLKDLDGNIPLLVAVQNGHSEACHFLLDHGADVNSRDKNGRTALMLACETGSSNTVDALIKKGADLSLVDSLGHNALHYSKLSENAGIQNLLLSKISQDADLKTPTKPKQHDQVSKISSERSGTPKKRKAPPPPISPTQLSDVSSPRSITSTPLSGKESVFFAEAPFKAEISSIQENKDRLSDSTAGADSLLDISSEADQQDLLVLLQAKVASLTLHNKELQDKLQAKSPKDKEAEADLSFQSFHSTQTDLAPSP
B4: SAMP2 1-69 (Pyrococcus furiosus, UniProt Q8U1Z3); sequence looked up; chain MKMIKVKVIGRNIEKEIEWREGMKVRDILRAVGFNTESAIAKVNGKVVLEDDEVKDGDFVEVIPVVSGG
B5: CNOT3 607-748 (Homo sapiens, UniProt O75175); sequence looked up; chain LTKEQLYQQAMEEAAWHHMPHPSDSERIRQYLPRNPCPTPPYHHQMPPPHSDTVEFYQRLSTETLFFIFYYLEGTKAQYLAAKALKKQSWRFHTKYMMWFQRHEEPKTITDEFEQGTYIYFDYEKWGQRKKEGFTFEYRYLE
B6: ARP6 (Saccharomyces cerevisiae, UniProt Q12509); sequence looked up; chain METPPIVIDNGSYEIKFGPSTNKKPFRALNALAKDKFGTSYLSNHIKNIKDISSITFRRPHELGQLTLWELESCIWDYCLFNPSEFDGFDLKEGKGHHLVASESCMTLPELSKHADQVIFEEYEFDSLFKSPVAVFVPFTKSYKGEMRTISGKDEDIDIVRGNSDSTNSTSSESKNAQDSGSDYHDFQLVIDSGFNCTWIIPVLKGIPYYKAVKKLDIGGRFLTGLLKETLSFRHYNMMDETILVNNIKEQCLFVSPVSYFDSFKTKDKHALEYVLPDFQTSFLGYVRNPRKENVPLPEDAQIITLTDELFTIPETFFHPEISQITKPGIVEAILESLSMLPEIVRPLMVGNIVCTGGNFNLPNFAQRLAAELQRQLPTDWTCHVSVPEGDCALFGWEVMSQFAKTDSYRKARVTREEYYEHGPDWCTKHRFGYQNWI
B7: ELM1 S519A (Saccharomyces cerevisiae, UniProt P32801); sequence looked up; chain MSPRQLIPTLIPEWAPLSQQSCIREDELDSPPITPTSQTSSFGSSFSQQKPTYSTIIGENIHTILDEIRPYVKKITVSDQDKKTINQYTLGVSAGSGQFGYVRKAYSSTLGKVVAVKIIPKKPWNAQQYSVNQVMRQIQLWKSKGKITTNMSGNEAMRLMNIEKCRWEIFAASRLRNNVHIVRLIECLDSPFSESIWIVTNWCSLGELQWKRDDDEDILPQWKKIVISNCSVSTFAKKILEDMTKGLEYLHSQGCIHRDIKPSNILLDEEEKVAKLSDFGSCIFTPQSLPFSDANFEDCFQRELNKIVGTPAFIAPELCHLGNSKRDFVTDGFKLDIWSLGVTLYCLLYNELPFFGENEFETYHKIIEVSLSSKINGNTLNDLVIKRLLEKDVTLRISIQDLVKVLSRDQPIDSRNHSQISSSSVNPVRNEGPVRRFFGRLLTKKGKKKTSGKGKDKVLVSATSKVTPSIHIDEEPDKECFSTTVLRSSPDSSDYCSSLGEEAIQVTDFLDTFCRSNEALPNLTVNNDKQNSDMKTDRSESSSHSSLKIPTPIKAMIRLKSSPKENGNRTHINCSQDKPSSPLMDRTVGKRTVNNSGARKLAHSSNILNFKAYINSEDSDIRETVEDVKTYLNFADNGQI
B8: ND4L 1-89 (Yarrowia lipolytica, UniProt Q9B6D4); sequence looked up; chain MFIGTIILVLSFLGFVFNRRNIILAFICLETMLLGINLILLRNSVLFDDISGSLFAIVIIILAGVESAIGLSLLVSYYRLRGVINSYGI
B9: VANGL1 (Homo sapiens, UniProt Q8TAA9-1); sequence looked up; chain MDTESTYSGYSYYSSHSKKSHRQGERTRERHKSPRNKDGRGSEKSVTIQPPTGEPLLGNDSTRTEEVQDDNWGETTTAITGTSEHSISQEDIARISKDMEDSVGLDCKRYLGLTVASFLGLLVFLTPIAFILLPPILWRDELEPCGTICEGLFISMAFKLLILLIGTWALFFRKRRADMPRVFVFRALLLVLIFLFVVSYWLFYGVRILDSRDRNYQGIVQYAVSLVDALLFIHYLAIVLLELRQLQPMFTLQVVRSTDGESRFYSLGHLSIQRAALVVLENYYKDFTIYNPNLLTASKFRAAKHMAGLKVYNVDGPSNNATGQSRAMIAAAARRRDSSHNELYYEEAEHERRVKKRKARLVVAVEEAFIHIQRLQAEEQQKAPGEVMDPREAAQAIFPSMARALQKYLRITRQQNYHSMESILQHLAFCITNGMTPKAFLERYLSAGPTLQYDKDRWLSTQWRLVSDEAVTNGLRDGIVFVLKCLDFSLVVNVKKIPFIILSEEFIDPKSHKFVLRLQSETSV
B10: LIN28A (Homo sapiens, UniProt Q9H9Z2); sequence looked up; chain MGSVSNQQFAGGCAKAAEEAPEEAPEDAARAADEPQLLHGAGICKWFNVRMGFGFLSMTARAGVALDPPVDVFVHQSKLHMEGFRSLKEGEAVEFTFKKSAKGLESIRVTGPGGVFCIGSERRPKGKSMQKRRSKGDRCYNCGGLDHHAKECKLPPQPKKCHFCQSISHMVASCPLKAQQGPSAQGKPTYFREEEEEIHSPTLLPEAQN
B11: POMP (Homo sapiens, UniProt Q9Y244); chain MNARGLGSELKDSIPVTELSASGPFESHDLLRKGFSCVKNELLPSHPLELSEKNFQLNQDKMNFSTLRNIQGLFAPLKLQMEFKAVQQVQRLPFLSSSNLSLDVLRGNDETIGFEDILNDPSQSEVMGEPHLMVEYKLGLL
B12: POL32 1-350 (Saccharomyces cerevisiae, UniProt P47110); chain MDQKASYFINEKLFTEVKPVLFTDLIHHLKIGPSMAKKLMFDYYKQTTNAKYNCVVICCYKDQTIKIIHDLSNIPQQDSIIDCFIYAFNPMDSFIPYYDIIDQKDCLTIKNSYELKVSESSKIIERTKTLEEKSKPLVRPTARSKTTPEETTGRKSKSKDMGLRSTALLAKMKKDRDDKETSRQNELRKRKEENLQKINKQNPEREAQMKELNNLFVEDDLDTEEVNGGSKPNSPKETDSNDKDKNNDDLEDLLETTAEDSLMDVPKIQQTKPSETEHSKEPKSEEEPSSFIDEDGYIVTKRPATSTPPRKPSPVVKRALSSSKKQETPSSNKRLKKQGTLESFFKRKAK
B13: ATG9 1-100 (Saccharomyces cerevisiae, UniProt Q12142); sequence looked up; chain MERDEYQLPNSHGKNTFLSRIFGLQSDEVNPSLNSQEMSNFPLPDIERGSSLLHSTNDSREDVDENDLRVPESDQGTSTEEEDEVDEEQVQAYAPQISDG
B14: Ap2s1 1-142 H96C (Mus musculus, UniProt P62743); chain MIRFILIQNRAGKTRLAKWYMQFDDDEKQKLIEEVHAVVTVRDAKHTNFVEFRNFKIIYRRYAGLYFCICVDVNDNNLAYLEAIHNFVEVLNEYFCNVCELDLVFNFYKVYTVVDEMFLAGEIRETSQTKVLKQLLMLQSLE
B15: EFR3A 721-791 (Homo sapiens, UniProt Q14156); chain SNTEEITFEALKKAIDTSGMEEQEKEKRRLVIEKFQKAPFEEIAAQCESKANLLHDRLAQILELTIRPPPS
UniProt Q8U1Y4, sequence (whole entry, unmodified, looked up): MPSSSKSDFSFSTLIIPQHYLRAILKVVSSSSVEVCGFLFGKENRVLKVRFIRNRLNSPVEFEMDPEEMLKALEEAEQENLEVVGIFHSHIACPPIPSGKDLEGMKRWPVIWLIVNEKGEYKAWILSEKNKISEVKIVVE
UniProt Q14671, sequence (whole entry, looked up): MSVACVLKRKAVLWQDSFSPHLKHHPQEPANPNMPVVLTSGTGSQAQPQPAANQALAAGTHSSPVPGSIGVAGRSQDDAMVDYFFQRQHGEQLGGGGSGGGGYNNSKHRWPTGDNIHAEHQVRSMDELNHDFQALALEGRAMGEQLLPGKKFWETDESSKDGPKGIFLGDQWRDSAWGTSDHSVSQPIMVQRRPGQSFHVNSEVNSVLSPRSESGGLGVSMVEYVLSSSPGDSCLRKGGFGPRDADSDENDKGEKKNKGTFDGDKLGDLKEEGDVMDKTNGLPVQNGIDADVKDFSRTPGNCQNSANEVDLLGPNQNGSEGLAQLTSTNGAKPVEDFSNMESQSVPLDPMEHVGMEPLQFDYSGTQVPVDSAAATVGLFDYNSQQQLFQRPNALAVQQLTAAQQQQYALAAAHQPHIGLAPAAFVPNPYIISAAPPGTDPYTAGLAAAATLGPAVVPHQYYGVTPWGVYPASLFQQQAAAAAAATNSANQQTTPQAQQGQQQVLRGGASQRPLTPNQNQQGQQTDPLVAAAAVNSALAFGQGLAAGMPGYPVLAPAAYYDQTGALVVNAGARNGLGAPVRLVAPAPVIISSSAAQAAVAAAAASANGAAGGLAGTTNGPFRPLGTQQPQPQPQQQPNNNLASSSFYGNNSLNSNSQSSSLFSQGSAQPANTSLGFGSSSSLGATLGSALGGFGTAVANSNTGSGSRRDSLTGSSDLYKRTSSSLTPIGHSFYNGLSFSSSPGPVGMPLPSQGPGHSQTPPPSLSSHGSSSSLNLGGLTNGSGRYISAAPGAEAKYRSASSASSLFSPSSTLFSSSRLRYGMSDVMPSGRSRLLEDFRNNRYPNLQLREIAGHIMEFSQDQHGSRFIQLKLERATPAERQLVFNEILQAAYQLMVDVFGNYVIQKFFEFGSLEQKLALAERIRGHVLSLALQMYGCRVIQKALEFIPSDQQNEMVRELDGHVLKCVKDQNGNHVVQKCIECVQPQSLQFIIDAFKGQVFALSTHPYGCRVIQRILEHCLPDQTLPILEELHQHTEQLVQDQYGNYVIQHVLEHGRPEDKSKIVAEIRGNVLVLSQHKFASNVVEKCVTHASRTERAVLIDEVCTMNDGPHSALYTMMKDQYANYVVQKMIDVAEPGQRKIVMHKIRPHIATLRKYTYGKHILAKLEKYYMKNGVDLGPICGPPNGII
UniProt P93002, sequence (whole entry, looked up): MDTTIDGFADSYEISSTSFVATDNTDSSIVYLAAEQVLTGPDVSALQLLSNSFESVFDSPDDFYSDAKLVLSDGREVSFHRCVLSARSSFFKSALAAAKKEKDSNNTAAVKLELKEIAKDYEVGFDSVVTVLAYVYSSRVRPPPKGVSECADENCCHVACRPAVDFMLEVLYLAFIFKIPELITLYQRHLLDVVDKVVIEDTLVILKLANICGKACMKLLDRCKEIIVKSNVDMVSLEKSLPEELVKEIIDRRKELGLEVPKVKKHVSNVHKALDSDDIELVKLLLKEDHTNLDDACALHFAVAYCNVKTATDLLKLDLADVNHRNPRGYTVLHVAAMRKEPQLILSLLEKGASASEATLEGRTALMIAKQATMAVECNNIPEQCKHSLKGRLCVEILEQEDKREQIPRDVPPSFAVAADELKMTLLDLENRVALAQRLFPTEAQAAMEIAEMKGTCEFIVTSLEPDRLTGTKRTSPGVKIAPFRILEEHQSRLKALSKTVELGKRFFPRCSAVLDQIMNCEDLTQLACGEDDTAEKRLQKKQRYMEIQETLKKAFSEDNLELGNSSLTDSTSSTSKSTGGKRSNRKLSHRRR
UniProt Q00535, sequence (whole entry, looked up): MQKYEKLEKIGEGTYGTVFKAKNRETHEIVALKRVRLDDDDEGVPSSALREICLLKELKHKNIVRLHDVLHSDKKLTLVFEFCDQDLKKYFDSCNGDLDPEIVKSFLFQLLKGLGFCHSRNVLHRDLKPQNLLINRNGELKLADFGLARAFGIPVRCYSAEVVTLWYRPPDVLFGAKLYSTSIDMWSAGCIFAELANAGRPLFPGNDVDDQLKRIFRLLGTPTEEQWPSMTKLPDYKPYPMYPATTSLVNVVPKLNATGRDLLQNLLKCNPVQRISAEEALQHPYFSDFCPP
UniProt P20936, sequence (whole entry, unmodified, looked up): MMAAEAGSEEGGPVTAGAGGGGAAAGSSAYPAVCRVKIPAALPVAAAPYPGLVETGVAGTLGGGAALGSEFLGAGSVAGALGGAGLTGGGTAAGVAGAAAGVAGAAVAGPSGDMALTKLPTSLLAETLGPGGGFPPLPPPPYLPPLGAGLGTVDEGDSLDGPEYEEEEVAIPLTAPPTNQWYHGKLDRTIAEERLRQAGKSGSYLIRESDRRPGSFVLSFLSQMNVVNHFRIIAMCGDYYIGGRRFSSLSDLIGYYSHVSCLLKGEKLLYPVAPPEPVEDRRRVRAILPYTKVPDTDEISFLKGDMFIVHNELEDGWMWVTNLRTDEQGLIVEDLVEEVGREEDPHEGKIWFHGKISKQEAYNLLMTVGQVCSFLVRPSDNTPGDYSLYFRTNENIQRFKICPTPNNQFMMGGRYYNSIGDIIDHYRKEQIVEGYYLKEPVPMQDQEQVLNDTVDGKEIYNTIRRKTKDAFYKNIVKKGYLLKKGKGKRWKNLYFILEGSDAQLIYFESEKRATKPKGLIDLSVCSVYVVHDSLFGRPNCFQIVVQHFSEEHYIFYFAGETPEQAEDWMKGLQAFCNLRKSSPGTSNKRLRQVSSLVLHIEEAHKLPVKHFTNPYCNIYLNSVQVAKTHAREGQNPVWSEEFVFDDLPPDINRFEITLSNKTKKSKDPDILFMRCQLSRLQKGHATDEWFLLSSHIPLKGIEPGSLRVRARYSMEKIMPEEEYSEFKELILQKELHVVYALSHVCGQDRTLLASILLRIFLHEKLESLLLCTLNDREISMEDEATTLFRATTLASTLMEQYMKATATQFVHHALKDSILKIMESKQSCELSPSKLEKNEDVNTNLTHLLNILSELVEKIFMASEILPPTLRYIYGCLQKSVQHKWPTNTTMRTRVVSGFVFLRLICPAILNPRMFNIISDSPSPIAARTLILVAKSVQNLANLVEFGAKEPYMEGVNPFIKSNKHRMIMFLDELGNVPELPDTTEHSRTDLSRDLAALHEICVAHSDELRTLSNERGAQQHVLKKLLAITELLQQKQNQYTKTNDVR
UniProt Q12263, sequence (whole entry, looked up): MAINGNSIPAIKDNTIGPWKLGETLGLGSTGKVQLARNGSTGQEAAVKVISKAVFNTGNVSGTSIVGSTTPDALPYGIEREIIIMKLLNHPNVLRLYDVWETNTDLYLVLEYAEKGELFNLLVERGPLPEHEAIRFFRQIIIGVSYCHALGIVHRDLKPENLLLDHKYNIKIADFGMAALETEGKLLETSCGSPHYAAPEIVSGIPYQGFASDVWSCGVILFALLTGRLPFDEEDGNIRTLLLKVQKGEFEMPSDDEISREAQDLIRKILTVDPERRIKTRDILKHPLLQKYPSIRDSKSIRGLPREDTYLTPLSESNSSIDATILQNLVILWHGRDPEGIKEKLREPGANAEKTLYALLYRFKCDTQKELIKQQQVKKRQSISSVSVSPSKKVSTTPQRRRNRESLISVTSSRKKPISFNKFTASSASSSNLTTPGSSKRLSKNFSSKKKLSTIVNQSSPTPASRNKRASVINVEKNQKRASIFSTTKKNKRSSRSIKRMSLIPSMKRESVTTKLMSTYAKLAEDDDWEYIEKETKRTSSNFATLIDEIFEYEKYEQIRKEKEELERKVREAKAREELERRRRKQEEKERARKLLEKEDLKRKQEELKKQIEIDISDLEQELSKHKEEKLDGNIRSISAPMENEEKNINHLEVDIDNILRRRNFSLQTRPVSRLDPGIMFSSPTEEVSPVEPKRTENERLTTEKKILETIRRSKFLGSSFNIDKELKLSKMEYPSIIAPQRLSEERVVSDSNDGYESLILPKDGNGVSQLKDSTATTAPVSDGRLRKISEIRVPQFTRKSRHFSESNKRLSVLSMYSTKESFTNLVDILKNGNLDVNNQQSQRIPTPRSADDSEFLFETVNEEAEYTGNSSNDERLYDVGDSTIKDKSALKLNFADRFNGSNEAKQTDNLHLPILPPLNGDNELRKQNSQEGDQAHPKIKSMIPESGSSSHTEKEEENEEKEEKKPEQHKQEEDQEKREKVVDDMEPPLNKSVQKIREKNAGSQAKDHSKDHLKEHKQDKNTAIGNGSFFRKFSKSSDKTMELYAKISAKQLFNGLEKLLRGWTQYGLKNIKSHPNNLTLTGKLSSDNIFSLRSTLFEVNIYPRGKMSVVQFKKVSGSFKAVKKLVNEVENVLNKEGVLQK
UniProt P26368, sequence (whole entry, looked up): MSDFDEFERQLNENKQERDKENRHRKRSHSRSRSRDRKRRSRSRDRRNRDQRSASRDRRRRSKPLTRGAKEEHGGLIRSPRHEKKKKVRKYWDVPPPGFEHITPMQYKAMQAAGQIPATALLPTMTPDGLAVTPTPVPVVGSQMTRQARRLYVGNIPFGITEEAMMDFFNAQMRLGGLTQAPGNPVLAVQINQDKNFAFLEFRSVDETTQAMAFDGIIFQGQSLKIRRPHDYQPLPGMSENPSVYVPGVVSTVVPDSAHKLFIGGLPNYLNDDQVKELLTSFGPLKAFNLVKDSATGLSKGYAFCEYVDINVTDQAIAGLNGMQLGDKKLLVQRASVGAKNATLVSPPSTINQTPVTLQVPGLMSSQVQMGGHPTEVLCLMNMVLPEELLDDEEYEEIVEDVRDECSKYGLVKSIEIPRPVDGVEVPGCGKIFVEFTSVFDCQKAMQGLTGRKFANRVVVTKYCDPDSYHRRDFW

| Molecule | target or system | test | system | setting | how to read | measurement | result |
| --- | --- | --- | --- | --- | --- | --- | --- |
| B1 (fesII 1-122) | nifD/nifK MoFe protein (Azotobacter vinelandii) | cryo-EM | – | – | – | binding | binds |
| KESALRKQDLLLQFDPLFR (TACC3 to 568 550-568 S558D/Y560L/K562Q/L567F (Homo sapiens, UniProt Q9Y6A5); sequence looked up) | CLTC 358-574 (Homo sapiens, UniProt Q00610) | peptide array | peptide | – | – | binding | binds |
| B2 (PAF1) | NPR1 (Arabidopsis thaliana, UniProt P93002) | pull-down | – | – | – | binding | binds |
| B3 (Rai14 1-400) | Pacsin1 (Rattus norvegicus, UniProt Q9Z0W5) | pull-down | – | – | – | binding | binds |
| B4 (SAMP2 1-69) | PF1070 1-140 del2-11 (Pyrococcus furiosus, UniProt Q8U1Y4) | crystal structure | – | 293 K | – | binding | binds |
| B5 (CNOT3 607-748) | PUM1 589-1186 (Homo sapiens, UniProt Q14671) | cross-linking | – | – | – | binding | binds |
| B6 (ARP6) | SWC3 (Saccharomyces cerevisiae, UniProt P31376) | cryo-EM | – | – | – | binding | binds |
| B7 (ELM1 S519A) | GIN4 (Saccharomyces cerevisiae, UniProt Q12263) | pull-down | – | – | – | binding | binds |
| B8 (ND4L 1-89) | ND6 1-185 (Yarrowia lipolytica, UniProt Q9B6E9) | cryo-EM | – | – | – | binding | binds |
| B9 (VANGL1) | PRICKLE1 (Homo sapiens, UniProt Q96MT3) | pull-down | Expi293F | – | – | binding | binds |
| TKQTARKSTGGKA (H3 peptide residues 3-x 4-16 (UniProt P68431); K9me3) | CBX7 8-62 D50C/R52D (Homo sapiens, UniProt O95931) | array | peptide | – | – | binding | binds |
| B10 (LIN28A) | TUT4 202-1313 (Homo sapiens, UniProt Q5TAX3) | cryo-EM | – | – | – | binding | binds |
| B11 (POMP) | T1, PSMG3/PSMG4 heterodimer (Homo sapiens) | cryo-EM | – | – | – | binding | binds |
| KEIFWDRCLSVINLMSSKMLQINA | Cyclin-dependent kinase 5, with p25 (CDK5, Homo sapiens, UniProt Q00535) | phosphotransferase activity, radiometric | peptide | concentration not given, 10% DMSO, together with: histone substrate | baseline: p5-WT peptide | activity change | 37% |
| ARTKQTARKSTGGKAY (histone H3 residues 1-15; K9me3) | ATRX 1-321 (Homo sapiens, UniProt P46100) | ITC | peptide | 25 °C | – | binding | binds |
| UUGUUUUGC (ssRNA) | U2AF2 148-342 (Homo sapiens, UniProt P26368) | sequencing of bound RNA | RNA | motif only | – | Kd | 1590 nM |
| B12 (POL32 1-350) | REV1 297-985 (Saccharomyces cerevisiae, UniProt P12689) | cryo-EM | – | – | – | binding | binds |
| DPSDYAEPMDAVVKPRNEEENIYSVPHDS (ARHGAP35 residues 1083-1111; pY1087/pY1105, N-acetyl, C-amide) | RASA1 174-444 R194C/C236S/C261S/C372S/C402S (Homo sapiens, UniProt P20936) | ITC | peptide | – | – | binding | binds |
| B13 (ATG9 1-100) | ATG23 Y16E (Saccharomyces cerevisiae, UniProt Q06671) | pull-down | – | 15 minutes, 4 °C | – | binding | binds |
| B14 (Ap2s1 1-142 H96C) | AP2M1 μ2 subunit 1-435 V306C (Mus musculus, UniProt P84091) | cross-linking | – | – | – | binding | binds |
| B15 (EFR3A 721-791) | PI4KA/TTC7B/FAM126A FAM126A (Homo sapiens) | SEC | – | – | – | binding | binds |
| RQIVDAQAVCTRCKESADFWCFECEQLLCAKCFEAHQWFLKHEARPLAE (PML 120-168 (Homo sapiens, UniProt P29590); sequence looked up) | UBE2I (Homo sapiens, UniProt P63279) | SEC | – | – | – | binding | binds |
